# Measurements from different studies.
# Each line is one published result; not all experiments were run side by side. Several values in a cell are separate wells, animals, samples, runs or records. ± gives the spread as reported.
# GAP50: Glideosome-associated protein 50 (GAP50, Plasmodium falciparum, UniProt Q8I2X3)
# UniProt Q8I2X3, sequence (whole entry, looked up): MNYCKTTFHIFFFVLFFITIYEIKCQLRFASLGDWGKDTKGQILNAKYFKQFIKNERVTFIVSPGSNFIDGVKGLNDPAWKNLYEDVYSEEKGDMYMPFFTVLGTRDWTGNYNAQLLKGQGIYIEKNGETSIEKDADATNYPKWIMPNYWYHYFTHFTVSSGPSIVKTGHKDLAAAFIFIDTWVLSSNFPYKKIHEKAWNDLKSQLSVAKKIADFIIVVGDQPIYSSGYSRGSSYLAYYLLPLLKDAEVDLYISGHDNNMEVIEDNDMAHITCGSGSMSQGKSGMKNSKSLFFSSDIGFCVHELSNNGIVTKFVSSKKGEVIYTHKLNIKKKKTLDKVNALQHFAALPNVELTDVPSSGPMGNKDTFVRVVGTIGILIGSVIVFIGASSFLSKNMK
# uncharacterized protein: uncharacterized protein (Pelagibacter ubique, UniProt Q4FKZ8)
# USP51 ZnF-UBD domain: Ubiquitin carboxyl-terminal hydrolase 51, ZnF-UBD domain (USP51, Homo sapiens, UniProt Q70EK9)
# UniProt Q70EK9, sequence (whole entry, looked up): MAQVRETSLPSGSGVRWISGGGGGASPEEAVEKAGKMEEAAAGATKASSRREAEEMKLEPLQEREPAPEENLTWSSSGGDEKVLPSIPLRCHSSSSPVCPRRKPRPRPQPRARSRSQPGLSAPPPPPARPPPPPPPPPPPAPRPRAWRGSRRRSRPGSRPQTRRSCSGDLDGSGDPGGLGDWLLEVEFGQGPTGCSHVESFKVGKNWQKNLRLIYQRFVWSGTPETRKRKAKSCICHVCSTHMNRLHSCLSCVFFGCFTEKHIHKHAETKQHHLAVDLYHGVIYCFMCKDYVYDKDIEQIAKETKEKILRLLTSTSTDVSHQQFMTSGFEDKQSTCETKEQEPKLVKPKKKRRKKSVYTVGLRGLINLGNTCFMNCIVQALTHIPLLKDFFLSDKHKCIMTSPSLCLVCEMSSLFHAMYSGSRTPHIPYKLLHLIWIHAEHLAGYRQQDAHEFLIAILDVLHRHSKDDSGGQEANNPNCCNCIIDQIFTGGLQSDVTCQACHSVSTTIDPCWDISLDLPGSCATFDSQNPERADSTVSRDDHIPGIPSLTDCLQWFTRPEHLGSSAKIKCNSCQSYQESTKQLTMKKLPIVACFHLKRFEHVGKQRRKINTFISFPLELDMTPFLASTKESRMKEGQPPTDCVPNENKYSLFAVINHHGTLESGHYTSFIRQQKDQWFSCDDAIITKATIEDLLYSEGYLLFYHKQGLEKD
# NOD2 LRR domain: Nucleotide-binding oligomerization domain-containing protein 2, LRR domain (NOD2, Homo sapiens, UniProt Q9HC29)
# UniProt Q9HC29, sequence (whole entry, unmodified, looked up): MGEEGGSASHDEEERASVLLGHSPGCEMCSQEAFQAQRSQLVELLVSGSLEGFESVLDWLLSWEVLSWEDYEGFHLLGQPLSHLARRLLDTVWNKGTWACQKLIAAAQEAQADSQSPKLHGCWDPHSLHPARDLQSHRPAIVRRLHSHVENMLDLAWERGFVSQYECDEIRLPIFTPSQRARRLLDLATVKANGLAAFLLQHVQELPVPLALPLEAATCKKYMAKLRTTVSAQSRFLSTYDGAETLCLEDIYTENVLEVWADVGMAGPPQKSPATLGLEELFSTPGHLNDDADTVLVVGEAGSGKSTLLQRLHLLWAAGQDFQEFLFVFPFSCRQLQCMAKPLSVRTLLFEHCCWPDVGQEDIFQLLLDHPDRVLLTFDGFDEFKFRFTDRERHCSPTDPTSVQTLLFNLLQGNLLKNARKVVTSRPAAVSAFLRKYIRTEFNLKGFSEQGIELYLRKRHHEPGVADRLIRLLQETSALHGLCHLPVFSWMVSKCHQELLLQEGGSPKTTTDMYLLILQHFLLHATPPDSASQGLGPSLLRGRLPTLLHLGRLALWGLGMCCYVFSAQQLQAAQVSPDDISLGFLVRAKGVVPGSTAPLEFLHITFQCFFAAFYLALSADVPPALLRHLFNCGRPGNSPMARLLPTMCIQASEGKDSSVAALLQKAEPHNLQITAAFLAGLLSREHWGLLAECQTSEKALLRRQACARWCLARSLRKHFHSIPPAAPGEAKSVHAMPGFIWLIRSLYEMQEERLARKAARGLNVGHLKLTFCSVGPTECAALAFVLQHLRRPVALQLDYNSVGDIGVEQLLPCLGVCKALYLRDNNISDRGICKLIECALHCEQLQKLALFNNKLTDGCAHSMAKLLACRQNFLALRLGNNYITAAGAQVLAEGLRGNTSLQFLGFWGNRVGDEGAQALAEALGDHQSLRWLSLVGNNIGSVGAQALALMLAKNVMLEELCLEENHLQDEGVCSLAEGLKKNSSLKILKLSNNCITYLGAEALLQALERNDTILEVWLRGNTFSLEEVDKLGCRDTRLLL
# Maoa: Amine oxidase [flavin-containing] A (Maoa, Rattus norvegicus, UniProt P21396)
# UniProt P21396, sequence (whole entry, looked up): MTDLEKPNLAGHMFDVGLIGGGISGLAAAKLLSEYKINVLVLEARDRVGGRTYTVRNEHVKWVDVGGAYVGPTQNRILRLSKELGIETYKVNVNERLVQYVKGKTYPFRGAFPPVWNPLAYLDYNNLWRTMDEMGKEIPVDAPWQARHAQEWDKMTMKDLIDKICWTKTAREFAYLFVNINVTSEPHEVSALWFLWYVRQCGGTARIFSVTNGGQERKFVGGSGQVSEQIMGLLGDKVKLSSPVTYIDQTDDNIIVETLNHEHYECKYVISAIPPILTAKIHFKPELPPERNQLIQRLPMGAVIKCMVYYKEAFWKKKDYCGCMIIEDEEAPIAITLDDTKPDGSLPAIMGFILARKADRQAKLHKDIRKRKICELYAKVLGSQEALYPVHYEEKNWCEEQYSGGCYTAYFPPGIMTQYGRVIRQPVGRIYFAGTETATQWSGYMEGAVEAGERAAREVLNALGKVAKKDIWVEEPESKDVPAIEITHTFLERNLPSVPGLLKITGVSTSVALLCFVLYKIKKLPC
# UniProt P0AG16, sequence (whole entry, looked up): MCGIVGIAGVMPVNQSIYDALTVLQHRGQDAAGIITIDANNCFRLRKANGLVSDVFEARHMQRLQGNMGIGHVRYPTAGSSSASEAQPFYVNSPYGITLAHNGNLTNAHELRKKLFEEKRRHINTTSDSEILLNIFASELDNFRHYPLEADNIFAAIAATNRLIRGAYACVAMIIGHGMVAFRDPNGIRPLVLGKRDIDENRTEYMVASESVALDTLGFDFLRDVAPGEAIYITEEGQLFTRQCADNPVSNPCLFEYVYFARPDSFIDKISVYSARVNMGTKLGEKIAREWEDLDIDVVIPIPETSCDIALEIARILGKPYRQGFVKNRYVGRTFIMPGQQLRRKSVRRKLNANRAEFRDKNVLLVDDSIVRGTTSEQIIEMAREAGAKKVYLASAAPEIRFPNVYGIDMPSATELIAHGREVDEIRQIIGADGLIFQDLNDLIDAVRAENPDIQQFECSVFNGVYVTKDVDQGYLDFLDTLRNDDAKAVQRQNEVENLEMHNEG
# UniProt P43354, sequence (whole entry, looked up): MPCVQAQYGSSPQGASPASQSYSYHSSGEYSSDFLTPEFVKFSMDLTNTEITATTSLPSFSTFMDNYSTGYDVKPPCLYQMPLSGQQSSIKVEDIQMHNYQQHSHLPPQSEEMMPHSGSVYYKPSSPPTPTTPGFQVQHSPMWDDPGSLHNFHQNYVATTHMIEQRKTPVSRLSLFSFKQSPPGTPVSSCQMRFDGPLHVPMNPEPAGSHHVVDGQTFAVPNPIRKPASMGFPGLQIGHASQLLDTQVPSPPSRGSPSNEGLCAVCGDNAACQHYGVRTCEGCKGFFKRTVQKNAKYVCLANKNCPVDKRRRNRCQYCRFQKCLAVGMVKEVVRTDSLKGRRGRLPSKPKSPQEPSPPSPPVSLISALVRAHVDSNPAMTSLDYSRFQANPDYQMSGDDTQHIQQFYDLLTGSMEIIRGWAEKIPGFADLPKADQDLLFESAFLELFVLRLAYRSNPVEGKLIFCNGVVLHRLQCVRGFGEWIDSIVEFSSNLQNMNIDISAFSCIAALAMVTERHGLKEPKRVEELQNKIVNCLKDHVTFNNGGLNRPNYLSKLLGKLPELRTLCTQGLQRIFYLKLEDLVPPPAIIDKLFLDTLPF
# UniProt Q969S8, sequence (whole entry, looked up): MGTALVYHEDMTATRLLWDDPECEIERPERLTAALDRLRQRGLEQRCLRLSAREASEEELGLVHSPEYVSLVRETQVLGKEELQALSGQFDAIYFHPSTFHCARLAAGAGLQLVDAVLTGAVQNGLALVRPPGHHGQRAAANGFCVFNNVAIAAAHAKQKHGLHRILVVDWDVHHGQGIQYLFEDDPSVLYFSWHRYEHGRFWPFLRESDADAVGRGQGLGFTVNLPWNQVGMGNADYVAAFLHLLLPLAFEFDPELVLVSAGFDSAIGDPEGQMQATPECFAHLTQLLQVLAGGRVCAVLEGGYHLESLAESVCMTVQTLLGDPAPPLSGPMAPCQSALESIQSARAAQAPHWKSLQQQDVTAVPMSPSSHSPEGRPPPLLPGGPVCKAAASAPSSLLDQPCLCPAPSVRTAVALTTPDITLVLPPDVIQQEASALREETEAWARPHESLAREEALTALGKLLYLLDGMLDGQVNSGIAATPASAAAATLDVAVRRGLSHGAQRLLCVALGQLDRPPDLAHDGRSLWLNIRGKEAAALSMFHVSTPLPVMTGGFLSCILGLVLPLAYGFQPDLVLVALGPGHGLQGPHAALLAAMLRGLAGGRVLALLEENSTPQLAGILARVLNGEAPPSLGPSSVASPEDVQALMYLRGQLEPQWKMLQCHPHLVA
# UniProt O95429, sequence (whole entry, looked up): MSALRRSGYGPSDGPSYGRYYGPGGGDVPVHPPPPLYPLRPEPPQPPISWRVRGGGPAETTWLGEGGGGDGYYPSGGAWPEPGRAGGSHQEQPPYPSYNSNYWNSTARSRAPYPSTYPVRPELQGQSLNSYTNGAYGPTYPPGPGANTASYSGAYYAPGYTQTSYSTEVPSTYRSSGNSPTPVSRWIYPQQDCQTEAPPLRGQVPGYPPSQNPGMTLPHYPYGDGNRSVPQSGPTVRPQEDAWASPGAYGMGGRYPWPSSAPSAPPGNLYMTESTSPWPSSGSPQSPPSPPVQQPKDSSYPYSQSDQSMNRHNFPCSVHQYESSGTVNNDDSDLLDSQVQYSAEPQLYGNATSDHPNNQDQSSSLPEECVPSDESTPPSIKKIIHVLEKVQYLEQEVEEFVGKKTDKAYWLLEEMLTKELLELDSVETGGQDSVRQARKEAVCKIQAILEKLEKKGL
target,assay,system,conditions,Kd,Compound
"Rdl (Drosophila melanogaster, UniProt P25123)","ion current, inhibitor, two-electrode voltage clamp",,"from koff/kon, added: GABA at EC50",0.0019 µM,C[C@@H]1C(=O)O[C@H]2C[C@@]34[C@H]5C[C@@H](C(C)(C)C)[C@]36[C@@H](OC(=O)[C@@H]6O)O[C@@]4(C(=O)O5)[C@]21O
KCNQ2/KCNQ3(EEE) mutant channel,"channel open probability, activator, fitted binding model",,"model 4, site K2",96 µM and 96.1 µM,CCCCCCCC(=O)OC[C@H](COP(=O)(O)O[C@@H]1[C@H](O)[C@H](O)[C@@H](OP(=O)(O)O)[C@H](OP(=O)(O)O)[C@H]1O)OC(=O)CCCCCCC
GAP50,"binding, surface plasmon resonance",,1:1 binding model,19.3 µM,COc1ccc(SCC(=O)N2c3ccccc3Sc3ccccc32)cc1
uncharacterized protein,isothermal titration calorimetry,Candidatus Pelagibacter ubique,direct titration,5.46 ± 0.06 µM,NCC(=O)O
"Germin-like protein subfamily 3 member 1 (GLP1, Arabidopsis thaliana, UniProt P94040)","binding, microscale thermophoresis",,Flag-tagged protein from protoplasts,1.73 µM,O=C(O)Cc1c[nH]c2ccccc12
"Heat shock cognate 71 kDa protein, nucleotide-binding domain (HSPA8, Homo sapiens, UniProt P11142)","binding, SPR",,"nucleotide-binding domain, residues 1-381",> 1000 µM,Nc1ncnc2c1ncn2[C@H]1O[C@@H](CO)[C@H](O)[C@@H]1O
"Amidophosphoribosyltransferase (purF, Escherichia coli, UniProt P0AG16)",isothermal titration calorimetry,,,1.2 µM,Nc1nc2c(ncn2[C@@H]2O[C@H](COP(=O)(O)OP(=O)(O)O)[C@@H](OP(=O)(O)OP(=O)(O)O)[C@H]2O)c(=O)[nH]1
GAP50,"binding, surface plasmon resonance",,1:1 binding model,2.8 µM,N=C(N)NCCCCC(=O)Nc1cc(C(F)(F)F)cc(NC(=O)c2cc(C(=O)Nc3cc(C(F)(F)F)cc(NC(=O)CCCCNC(=N)N)c3O[C@@H]3CCNC3)ncn2)c1O[C@@H]1CCNC1
USP51 ZnF-UBD domain,,,,> 1000 µM,O=C(O)CNc1ccc2nncn2n1
GAP50,"binding, surface plasmon resonance",,1:1 binding model,28.3 µM,OCCC#Cc1nc(-c2ccc(F)cc2)c(-c2ccncc2)n1CCCc1ccccc1
NOD2 LRR domain,"binding, SPR, immobilised ligand",,LRR domain wild type,0.212 ± 0.024 µM,CC(=O)N[C@H]1C(O)O[C@H](CO)[C@@H](O)[C@@H]1O[C@H](C)C(=O)N[C@@H](C)C(=O)N[C@H](CCC(=O)O)C(N)=O (mixture of isomers)
"Putative transcription factor Ovo-like 1 (OVOL1, Homo sapiens, UniProt O14753)","binding, microscale thermophoresis",,,> 2000 µM,OC[C@H]1OC(O)[C@H](O)[C@@H](O)[C@@H]1O (stereo partly drawn)
USP51 ZnF-UBD domain,,,,> 1000 µM,Nc1nc(CC(=O)O)cs1
"Metacaspase-2 (MCA2, Trypanosoma brucei brucei, UniProt Q585F3)","binding, high-affinity site, intrinsic fluorescence",,"pH 7.4, 25 °C",3 ± 0.3 µM,[Ca+2].[Cl-].[Cl-]
GAP50,"binding, surface plasmon resonance",,1:1 binding model,0.289 µM,Cc1ccccc1C(=O)N1N=C(Nc2ccccc2)SC1(C)C
"Aromatic O-demethylase, cytochrome P450 subunit (gcoA, Amycolatopsis sp., UniProt P0DPQ7)","binding, ferric spin-state titration",Amycolatopsis sp. ATCC 39116,ferric enzyme without reductase,0.13 ± 0.02 µM,COc1ccccc1O
"Histo-blood group ABO system transferase (ABO, Homo sapiens, UniProt P16442, G268A/L266G)",methyl-TROSY NMR titration,,apo enzyme,37 ± 1 µM,O=c1ccn([C@@H]2O[C@H](COP(=O)(O)OP(=O)(O)O)[C@@H](O)[C@H]2O)c(=O)[nH]1
"Nucleotide-binding oligomerization domain-containing protein 2, LRR domain (NOD2, Homo sapiens, UniProt Q9HC29, S933A)",surface plasmon resonance,,LRR mutant S933A,0.615 ± 0.086 µM,C[C@H](N)C(=O)N[C@H](CCC(=O)O)C(N)=O
GAP50,"binding, surface plasmon resonance",,1:1 binding model,53.9 µM,c1ccc(C[C@@H]2CN(c3nccc(Oc4ccc(-n5ccnc5)cc4)n3)CCN2)cc1
2-mercaptoethanol,"thiol adduct formation, UV-visible titration",PBS,pH 7.4,6230 ± 1190 µM,N#CC(=Cc1cccc2[nH]ccc12)C(N)=O
GAP50,"binding, surface plasmon resonance",,1:1 binding model,67.2 µM,Cc1nnc(NCc2cccc(Cl)c2)c2ccccc12
"Heat shock protein HSP 90-alpha (HSP90AA1, Homo sapiens, UniProt P07900)","binding, fluorescence polarization competition",,added: geldanamycin-FITC,112 µM,Nc1ncnc2c1ncn2[C@@H]1O[C@H](COP(=O)(O)OP(=O)(O)OP(=O)(O)O)[C@@H](O)[C@H]1O
"cmk (Bifidobacterium longum, UniProt A0ACD7UKP5)","binder, isothermal titration calorimetry",,25 °C,2.2 µM,Nc1ncnc2c1ncn2[C@@H]1O[C@H](COP(=O)(O)OP(=O)(O)OP(=O)(O)O)[C@@H](O)[C@H]1O
NOD2 LRR domain,"binding, SPR, immobilised ligand",,LRR domain wild type,0.212 ± 0.024 µM,CC(=O)NC1C(O)OC(CN)C(O)[C@@H]1O[C@H](C)C(=O)N[C@@H](C)C(=O)N[C@H](CCC(=O)O)C(N)=O (stereo partly drawn)
"Polyamine deacetylase HDAC10 (HDAC10, Homo sapiens, UniProt Q969S8)","inhibitor, competition pulldown",SW620 and MV4-11 lysate,1 h,3.35 µM,O=C(CCCCCCNC(=O)c1cnc(N(c2ccccc2)c2ccccc2Cl)nc1)NO
GAP50,"binding, surface plasmon resonance",,1:1 binding model,48.3 µM,Fc1ccc(-c2nc(-c3c[nH]c4ccc(Br)cc34)[nH]c2-c2ccc(F)cc2)cc1
uncharacterized protein,isothermal titration calorimetry,Candidatus Pelagibacter ubique,direct titration,< 0.005 µM,C[N+](C)(C)CC(=O)O
2-mercaptoethanol,"thiol adduct formation, UV-visible titration",PBS,pH 7.4,32800 ± 570 µM,N#CC(=Cc1cnc[nH]1)C(N)=O
Maoa,"binding, steady-state isotope effects",,"pH 7.5, pKa-corrected, deprotonated amine",6.7 µM,NCc1ccccc1
USP51 ZnF-UBD domain,,,,> 1000 µM,O=C(O)CCc1ccccc1OCc1ccccn1
Maoa,steady-state isotope effects,,pH 7.5,103 µM,NCc1ccc(F)cc1
fucoidan,"binding, isothermal titration calorimetry",,"pH 7.0, 25 °C",0.31 µM,CC(C)C[C@@H]1NC(=O)[C@H](C(C)C)NC(=O)CNC(=O)[C@H](CC(N)=O)NC(=O)[C@@H]2CCCN2C(=O)[C@H](Cc2ccc(O)cc2)NC(=O)[C@H](CCCNC(=N)N)NC(=O)[C@H](Cc2ccccc2)NC(=O)[C@@H](NC(=O)[C@H](CCCCN)NC(=O)[C@@H]2CCCN2C(=O)[C@H](C)NC(=O)[C@H](C)NC(=O)[C@@H](N)Cc2ccc(O)cc2)CSSC[C@@H](C(=O)N[C@H](C(N)=O)[C@@H](C)O)NC(=O)[C@H](C)NC1=O
"Nuclear receptor subfamily 4 group A member 2 (Homo sapiens, UniProt P43354)",isothermal titration calorimetry,,25 °C,no binding,CC(C)N1CCC(NC(=O)c2cc3[nH]ccc3cc2Cl)CC1
Maoa,,,"pH 7.5, deprotonated amine, pKa-corrected",0.76 µM,NCc1ccc(Br)cc1
"Microtubule-associated protein tau, 0N4R isoform, aggregated (MAPT, Homo sapiens, UniProt P10636)","binding, fluorescence",30% sucrose tau fraction,,5.26 µM,O=C(O)Cc1cc(-c2ccc(C(=O)O)s2)sc1-c1ccc(-c2sc(-c3ccc(C(=O)O)s3)cc2CC(=O)O)s1
"Nucleotide-binding oligomerization domain-containing protein 2, LRR domain (NOD2, Homo sapiens, UniProt Q9HC29, R877A)",surface plasmon resonance,,LRR mutant R877A,1.34 ± 0.093 µM,CC(=O)N[C@@H]1[C@@H](O)[C@H](O)[C@@H](CO)O[C@H]1O
USP51 ZnF-UBD domain,,,,> 1000 µM,O=C(O)COc1cnc2ccccc2n1
GAP50,"binding, surface plasmon resonance",,1:1 binding model,90.5 µM,CC(C)(C)c1cc(C(=O)Nc2cccnc2)cc(C(=O)Nc2cccnc2)c1
"linB (Sphingobium indicum, UniProt D4Z2G1, H272F)",,,,2.34 ± 0.8 µM,CN(C)c1ccc2c(-c3cc(C(=O)NCCOCCOCCCCCCCl)ccc3C(=O)[O-])c3ccc(=[N+](C)C)cc-3oc2c1
"DNA repair protein REV1, residues 1-746 (REV1, Saccharomyces cerevisiae, UniProt P12689)","substrate, rapid chemical quench",,"pH 7.5, 30 °C, added: primer-template DNA",32 ± 7 µM,Nc1ccn([C@H]2C[C@H](O)[C@@H](COP(=O)(O)OP(=O)(O)OP(=O)(O)O)O2)c(=O)n1
"BAG family molecular chaperone regulator 4 (BAG4, Homo sapiens, UniProt O95429)","binding, MS pulldown competition",SW-620 cell lysate,,0.203 µM,Cc1cc2nc3c(=O)[nH]c(=O)nc-3n(C[C@H](O)[C@H](O)[C@H](O)COP(=O)(O)OP(=O)(O)OC[C@H]3O[C@@H](n4cnc5c(N)ncnc54)[C@H](O)[C@@H]3O)c2cc1C
USP51 ZnF-UBD domain,,,,> 1000 µM,O=C(O)CCn1c(=O)oc2ccccc21
His-SUMO-FSP1,"binding, SPR steady-state",,,0.255 µM,Cc1ccc(-c2c(C#N)c(N)n3c(nc4ccccc43)c2C#N)cc1
USP51 ZnF-UBD domain,,,,> 1000 µM,O=C(O)Cn1cc2ccccc2n1
SAR11_1346 protein (Candidatus Pelagibacter sp.),"binding, direct isothermal titration calorimetry",,,< 0.005 µM,C[C@@H](O)[C@H](N)C(=O)O
USP51 ZnF-UBD domain,,,,> 1000 µM,O=C(O)CCc1ccccc1
"GTP-binding protein gtr2, with Gtr1 (gtr2, Schizosaccharomyces pombe, UniProt O74544, F161W)","binding, UV crosslinking equilibrium titration",,"4 °C, no 7.4",0.027 µM,Nc1nc2c(ncn2[C@@H]2O[C@H](COP(=O)(O)OP(=O)(O)OP(=O)(O)O)[C@@H](O)[C@H]2O)c(=O)[nH]1
USP51 ZnF-UBD domain,,,,> 1000 µM,O=C(O)Cc1nc2ccccc2o1
T156H-R445H zinc sensor protein,"binding, fluorescence lifetime",,no Zn2+,52 ± 10 µM,C[C@H](O)C(=O)O
"Fascin (FSCN1, Homo sapiens, UniProt Q16658)",binding,,,0.08 µM,O=C(Nc1ccncc1)c1cn(Cc2ccc(Cl)c(Cl)c2)c(=O)c2cnn(C3CCNCC3)c12
"Carbonic anhydrase 14 (CA14, Homo sapiens, UniProt Q9ULX7)",thermal shift,,"pH 7.0, 25 °C",0.02 µM,Nc1nc(-c2ccc(Cl)c(S(N)(=O)=O)c2)cs1

# Some of these lines once more:
target,assay,system,conditions,Kd,Compound
T156H-R445H zinc sensor protein,"binding, fluorescence lifetime",,no Zn2+,52 ± 10 µM,C[C@H](O)C(=O)O
"Amidophosphoribosyltransferase (purF, Escherichia coli, UniProt P0AG16)",isothermal titration calorimetry,,,1.2 µM,Nc1nc2c(ncn2[C@@H]2O[C@H](COP(=O)(O)OP(=O)(O)O)[C@@H](OP(=O)(O)OP(=O)(O)O)[C@H]2O)c(=O)[nH]1
GAP50,"binding, surface plasmon resonance",,1:1 binding model,90.5 µM,CC(C)(C)c1cc(C(=O)Nc2cccnc2)cc(C(=O)Nc2cccnc2)c1
NOD2 LRR domain,"binding, SPR, immobilised ligand",,LRR domain wild type,0.212 ± 0.024 µM,CC(=O)N[C@H]1C(O)O[C@H](CO)[C@@H](O)[C@@H]1O[C@H](C)C(=O)N[C@@H](C)C(=O)N[C@H](CCC(=O)O)C(N)=O (mixture of isomers)
SAR11_1346 protein (Candidatus Pelagibacter sp.),"binding, direct isothermal titration calorimetry",,,< 0.005 µM,C[C@@H](O)[C@H](N)C(=O)O
GAP50,"binding, surface plasmon resonance",,1:1 binding model,48.3 µM,Fc1ccc(-c2nc(-c3c[nH]c4ccc(Br)cc34)[nH]c2-c2ccc(F)cc2)cc1
